Measured values from different studies.
Each numbered part is a random draw from the data of one study; scales do not carry over between parts. Changes are numbered by the printed parent chain.

Set 1
Target: Histone acetyltransferase KAT6A, both winged helices, GST fusion (KAT6A, Homo sapiens, UniProt Q92794, residues 1-181)
Method: protein binding microarray
Molecule type: double-stranded DNA, one strand shown
Medium: in vitro
Tested at: not given
Setting: 8-mer, flanks averaged, mean of 2 arrays, mostly near background
Baseline: not given
Direction: higher = stronger binding
Residues (chain): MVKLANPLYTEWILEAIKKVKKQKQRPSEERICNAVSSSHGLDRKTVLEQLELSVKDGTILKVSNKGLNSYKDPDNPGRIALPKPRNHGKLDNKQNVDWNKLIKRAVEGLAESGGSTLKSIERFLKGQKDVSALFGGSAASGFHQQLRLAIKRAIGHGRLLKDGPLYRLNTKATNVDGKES
`CGCCGAGC` has an E-score of 0.282.
With `CCCGGCCG` the E-score was 0.351.
`AGTTGGTA` has an E-score of -0.262.
`AAGGACGG` gave an E-score of 0.216.
With `GGACTATA` the E-score was -0.0233.
With `CTGCCCTA` the E-score was -0.145.
`AATTTTCT` gave an E-score of -0.143.
The E-score of `AATCGGAT` is reported as 0.0942.
`GGTGGTAA` gave an E-score of -0.171.
`CTGTGTGC` has an E-score of -0.0433.
`GTCCTGAA` gave an E-score of -0.18.

Set 2
Target: Prothrombin, mature alpha-thrombin (F2, Homo sapiens, UniProt P00734)
Method: aptamer microarray, sandwich
Molecule type: DNA with 2'F-ANA
Medium: in vitro
Tested at: 200 nM
Setting: whole 15-mer aptamer, many near background
With: Cy3 exosite-II aptamer, 400 nM
Direction: higher = stronger binding
Oligonucleotide: GGTTGGTGTGGTTGG
`2'F-ANA at 3 4 7 10 13 14`: “mean fluorescence intensity” 246 a.u.
`2'F-ANA at 1 2 3 4 6 7 13 14 15` — result for “mean fluorescence intensity”: 58.8 a.u.
`2'F-ANA at 3 4 5 7 10 13 14 15` — result for “mean fluorescence intensity”: 56.2 a.u.
`2'F-ANA at 1 2 5 6 8 9 10 11 13`: “mean fluorescence intensity” 53.9 a.u.
`2'F-ANA at 1 2 4 5 7 10 11 13 15`: “mean fluorescence intensity” 48.4 a.u.
`2'F-ANA at 1 3 5 6 7 8 9 11 12 13`: “mean fluorescence intensity” 78.7 a.u.
Under “mean fluorescence intensity”, `2'F-ANA at 1 2 3 4 7 9 10 11 13 14` is recorded as 50.3 a.u.
`2'F-ANA at 1 4 6 11 12`: “mean fluorescence intensity” 204 a.u.
`2'F-ANA at 1 2 3 5 7 9 10 11 13 14 15`: “mean fluorescence intensity” 49.2 a.u.
Under “mean fluorescence intensity”, `2'F-ANA at 2 3 6 7 9 12 14 15` is recorded as 378 a.u.
Under “mean fluorescence intensity”, `2'F-ANA at 2 4 5 9 10 11 13 14` is recorded as 45.8 a.u.

Set 3
Target: ABI1, truncated, D143A, DHFR fusion (Arabidopsis thaliana)
Method: DHFR PCA, deep sequencing
Medium: yeast
Setting: methotrexate growth selection, single substitutions
With: (+)-ABA 0.0091 µM
Baseline: wild-type fitted maximum
Direction: higher = stronger binding
Parent: PYL1, truncated, DHFR fusion (Arabidopsis thaliana); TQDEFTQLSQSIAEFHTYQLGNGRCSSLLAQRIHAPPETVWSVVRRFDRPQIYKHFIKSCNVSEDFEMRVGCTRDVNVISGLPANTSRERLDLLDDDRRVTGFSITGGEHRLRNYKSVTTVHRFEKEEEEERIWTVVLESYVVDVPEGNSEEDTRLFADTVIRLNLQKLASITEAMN
For `R132G`, “relative binding score” read 62.2%.
Under “relative binding score”, `I33W` is recorded as -3.41%.
`I12F` — result for “relative binding score”: -4.9%.
For `G102E`, “relative binding score” read -2.19%.
`L29S`: “relative binding score” -0.934%.
`G148P`: “relative binding score” 0.761%.

Further values, each from its own experiment
`PhoQ, residues 284 288 289 292 302 303 QWGLFV` gave a fold induction of 14.2 (PhoP, residues 12 14 15 18 19 MHTVL (Escherichia coli, UniProt P23836); Sort-seq, item: YFP reporter; E. coli; PhoQ-PhoP variant library, with: 10 µM Mg2+; baseline: high Mg2+ state, higher = stronger signaling).
